Published values collected from several papers.
Numbered parts are unrelated; each lists some results of a single study. Values joined by “and” are separate records of one study, mostly repeats; a detail may differ.
Chain of UniProt P08631 (whole entry, looked up): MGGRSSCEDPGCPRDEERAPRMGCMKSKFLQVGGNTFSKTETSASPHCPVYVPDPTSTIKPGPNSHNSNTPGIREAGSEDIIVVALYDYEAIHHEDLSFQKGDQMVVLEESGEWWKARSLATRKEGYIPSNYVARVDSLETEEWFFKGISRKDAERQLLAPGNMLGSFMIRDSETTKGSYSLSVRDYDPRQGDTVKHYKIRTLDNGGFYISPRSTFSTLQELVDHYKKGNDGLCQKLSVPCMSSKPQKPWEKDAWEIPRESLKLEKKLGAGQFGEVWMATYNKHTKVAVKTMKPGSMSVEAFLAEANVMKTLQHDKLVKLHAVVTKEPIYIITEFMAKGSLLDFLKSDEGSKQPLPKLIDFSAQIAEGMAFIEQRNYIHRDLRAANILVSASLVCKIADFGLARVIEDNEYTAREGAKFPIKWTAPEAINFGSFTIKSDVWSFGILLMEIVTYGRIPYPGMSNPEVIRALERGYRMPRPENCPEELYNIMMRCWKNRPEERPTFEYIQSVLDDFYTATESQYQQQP
Chain of UniProt P09769 (whole entry, looked up): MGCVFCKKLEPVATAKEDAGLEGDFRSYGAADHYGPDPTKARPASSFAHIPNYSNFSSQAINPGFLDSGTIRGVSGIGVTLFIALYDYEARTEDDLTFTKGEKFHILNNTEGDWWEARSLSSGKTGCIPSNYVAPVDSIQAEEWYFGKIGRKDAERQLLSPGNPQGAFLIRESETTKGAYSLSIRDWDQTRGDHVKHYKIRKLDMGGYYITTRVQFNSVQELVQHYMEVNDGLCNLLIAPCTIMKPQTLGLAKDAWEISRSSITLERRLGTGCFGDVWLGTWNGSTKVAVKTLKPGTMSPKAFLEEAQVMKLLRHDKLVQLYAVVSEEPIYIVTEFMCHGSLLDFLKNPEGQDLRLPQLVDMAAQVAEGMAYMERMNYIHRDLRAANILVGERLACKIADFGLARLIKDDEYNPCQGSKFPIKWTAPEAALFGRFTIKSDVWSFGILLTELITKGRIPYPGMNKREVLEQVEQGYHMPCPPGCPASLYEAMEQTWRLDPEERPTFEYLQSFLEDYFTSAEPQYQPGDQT
Chain of UniProt Q9P2K8 (whole entry, unmodified, looked up): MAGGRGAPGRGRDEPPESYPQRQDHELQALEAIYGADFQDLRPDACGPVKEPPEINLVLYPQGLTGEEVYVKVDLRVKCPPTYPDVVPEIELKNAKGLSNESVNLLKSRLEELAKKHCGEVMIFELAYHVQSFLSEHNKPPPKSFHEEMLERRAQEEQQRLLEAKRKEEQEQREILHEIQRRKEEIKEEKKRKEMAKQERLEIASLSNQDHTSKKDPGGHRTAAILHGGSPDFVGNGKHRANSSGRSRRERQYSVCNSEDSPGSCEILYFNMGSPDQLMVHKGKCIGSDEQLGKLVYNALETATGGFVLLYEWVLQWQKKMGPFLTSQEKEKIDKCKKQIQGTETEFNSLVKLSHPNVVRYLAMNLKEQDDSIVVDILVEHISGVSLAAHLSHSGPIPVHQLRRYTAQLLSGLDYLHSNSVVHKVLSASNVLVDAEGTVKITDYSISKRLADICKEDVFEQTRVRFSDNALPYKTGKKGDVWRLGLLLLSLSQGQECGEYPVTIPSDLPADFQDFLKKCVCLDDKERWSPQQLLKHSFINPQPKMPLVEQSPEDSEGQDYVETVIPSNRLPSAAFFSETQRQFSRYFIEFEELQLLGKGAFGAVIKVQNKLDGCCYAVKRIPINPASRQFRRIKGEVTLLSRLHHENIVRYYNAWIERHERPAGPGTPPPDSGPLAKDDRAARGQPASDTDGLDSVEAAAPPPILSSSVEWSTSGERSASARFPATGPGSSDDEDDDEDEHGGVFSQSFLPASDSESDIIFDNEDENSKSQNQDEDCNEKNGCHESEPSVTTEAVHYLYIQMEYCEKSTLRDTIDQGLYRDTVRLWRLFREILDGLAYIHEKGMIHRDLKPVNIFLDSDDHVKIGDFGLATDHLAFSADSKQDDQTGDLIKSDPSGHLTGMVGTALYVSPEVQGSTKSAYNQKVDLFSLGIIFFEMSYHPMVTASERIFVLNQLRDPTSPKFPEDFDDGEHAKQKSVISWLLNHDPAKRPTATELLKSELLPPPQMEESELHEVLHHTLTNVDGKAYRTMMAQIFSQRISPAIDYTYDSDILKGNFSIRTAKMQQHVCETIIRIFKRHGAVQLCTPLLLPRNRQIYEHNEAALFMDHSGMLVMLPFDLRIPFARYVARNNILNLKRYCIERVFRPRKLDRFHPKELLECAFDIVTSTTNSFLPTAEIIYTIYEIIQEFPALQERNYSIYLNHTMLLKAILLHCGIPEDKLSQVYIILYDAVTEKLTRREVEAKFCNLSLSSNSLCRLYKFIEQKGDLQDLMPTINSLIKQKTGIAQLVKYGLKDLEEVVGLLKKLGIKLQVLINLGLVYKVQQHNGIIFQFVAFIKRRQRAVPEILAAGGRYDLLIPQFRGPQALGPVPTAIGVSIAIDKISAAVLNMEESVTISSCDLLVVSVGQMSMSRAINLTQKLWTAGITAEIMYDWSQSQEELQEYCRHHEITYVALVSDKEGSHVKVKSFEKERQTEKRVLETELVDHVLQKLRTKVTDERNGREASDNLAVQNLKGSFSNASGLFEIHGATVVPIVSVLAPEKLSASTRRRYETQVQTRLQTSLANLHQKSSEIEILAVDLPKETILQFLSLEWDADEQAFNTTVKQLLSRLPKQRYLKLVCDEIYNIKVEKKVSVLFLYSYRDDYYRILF
Chain of UniProt Q9HC98 (whole entry, looked up): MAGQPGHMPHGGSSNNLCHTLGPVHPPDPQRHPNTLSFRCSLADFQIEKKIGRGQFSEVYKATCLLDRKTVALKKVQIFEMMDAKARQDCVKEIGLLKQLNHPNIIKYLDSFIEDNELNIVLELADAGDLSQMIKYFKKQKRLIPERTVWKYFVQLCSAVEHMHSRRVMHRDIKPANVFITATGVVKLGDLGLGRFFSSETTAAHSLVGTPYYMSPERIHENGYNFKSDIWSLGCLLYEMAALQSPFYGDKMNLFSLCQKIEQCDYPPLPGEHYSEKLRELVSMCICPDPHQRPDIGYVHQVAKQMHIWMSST

Series 1
Compound: COc1cc(-c2nc3ccc(C(=O)NCCCN4CCN(c5cccc(C)c5C)CC4)cc3n2C2CCC2)cc(OC)c1OC
Effect on: binding
Method: competition with immobilised ligand
Concentration: 1 µM
Myosin-IIIb (MYO3B, Homo sapiens, UniProt Q8WXR4) — remaining binding: 84%.
For Serine/threonine-protein kinase DCLK2 (DCLK2, Homo sapiens, UniProt Q8N568): remaining binding read 96%.
For Serine/threonine-protein kinase Nek1 (NEK1, Homo sapiens, UniProt Q96PY6): remaining binding read 79%.
It gave 96% for remaining binding (Eukaryotic translation initiation factor 2-alpha kinase 1 (EIF2AK1, Homo sapiens, UniProt Q9BQI3)).
It gave 100% for remaining binding (Leucine-rich repeat serine/threonine-protein kinase 2 (LRRK2, Homo sapiens, UniProt Q5S007)).
It gave 92% for remaining binding (Cyclin-dependent kinase 7 (CDK7, Homo sapiens, UniProt P50613)).
It gave 81% for remaining binding (TGF-beta receptor type-2 (TGFBR2, Homo sapiens, UniProt P37173)).
It gave 94% for remaining binding (Megakaryocyte-associated tyrosine-protein kinase (MATK, Homo sapiens, UniProt P42679)).
The remaining binding was 89% (Cyclin-dependent kinase 8 (CDK8, Homo sapiens, UniProt P49336)).
The remaining binding was 87% (Calcium/calmodulin-dependent protein kinase kinase 2 (CAMKK2, Homo sapiens, UniProt Q96RR4)).
It gave 94% for remaining binding (Tyrosine-protein kinase Fgr (FGR, Homo sapiens, UniProt P09769)).
It gave 96% for remaining binding (Ephrin type-A receptor 8 (EPHA8, Homo sapiens, UniProt P29322)).
It gave 91% for remaining binding (Phosphorylase b kinase gamma catalytic chain, liver/testis isoform (PHKG2, Homo sapiens, UniProt P15735)).
It gave 96% for remaining binding (Wee1-like protein kinase 2 (WEE2, Homo sapiens, UniProt P0C1S8)).
It gave 91% for remaining binding (Tyrosine-protein kinase HCK (HCK, Homo sapiens, UniProt P08631)).
The remaining binding was 100% (TRAF2 and NCK-interacting protein kinase (TNIK, Homo sapiens, UniProt Q9UKE5)).
Serine/threonine-protein kinase Nek6 (NEK6, Homo sapiens, UniProt Q9HC98) — remaining binding: 100%.
For Serine/threonine-protein kinase 38 (STK38, Homo sapiens, UniProt Q15208): remaining binding read 85%.
Serine/threonine-protein kinase MAK (MAK, Homo sapiens, UniProt P20794) — remaining binding: 100%.
The remaining binding was 96% (Mitogen-activated protein kinase kinase kinase 12 (MAP3K12, Homo sapiens, UniProt Q12852)).
Serine/threonine-protein kinase TAO2 (TAOK2, Homo sapiens, UniProt Q9UL54) — remaining binding: 82%.
The remaining binding was 100% (eIF-2-alpha kinase GCN2, C-terminal kinase domain (EIF2AK4, Homo sapiens, UniProt Q9P2K8, S808G)).
The remaining binding was 51% (Serine/threonine-protein kinase TNNI3K (TNNI3K, Homo sapiens, UniProt Q59H18)).
For Serine/threonine-protein kinase 36 (STK36, Homo sapiens, UniProt Q9NRP7): remaining binding read 81%.
For TGF-beta receptor type-1 (TGFBR1, Homo sapiens, UniProt P36897): remaining binding read 81%.

Series 2
SMILES: Cc1ccc(O)c(C)c1-c1cnc2[nH]c(-c3cnc(N4CCC5(CC4)CC(N4CCN(c6ccc(N[C@H]7CCC(=O)NC7=O)cc6F)CC4)CO5)nc3)cc2c1C#N (single isomer, unassigned)
PKMYT1: Membrane-associated tyrosine- and threonine-specific cdc2-inhibitory kinase (PKMYT1, Homo sapiens, UniProt Q99640)
Chain of UniProt Q99640 (whole entry, looked up): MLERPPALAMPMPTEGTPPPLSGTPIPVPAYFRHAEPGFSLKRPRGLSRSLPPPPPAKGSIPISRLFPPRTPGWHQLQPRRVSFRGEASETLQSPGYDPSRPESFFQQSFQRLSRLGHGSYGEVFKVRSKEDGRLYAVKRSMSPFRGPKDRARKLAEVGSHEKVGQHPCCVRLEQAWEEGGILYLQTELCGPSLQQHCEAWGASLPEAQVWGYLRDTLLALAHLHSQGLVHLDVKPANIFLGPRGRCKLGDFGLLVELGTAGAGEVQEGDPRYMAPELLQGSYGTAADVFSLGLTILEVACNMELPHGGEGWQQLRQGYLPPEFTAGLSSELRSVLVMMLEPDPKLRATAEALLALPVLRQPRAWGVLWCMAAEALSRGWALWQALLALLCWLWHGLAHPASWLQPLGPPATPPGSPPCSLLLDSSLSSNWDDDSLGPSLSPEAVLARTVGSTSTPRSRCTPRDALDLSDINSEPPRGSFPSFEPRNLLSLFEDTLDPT
The inhibition was -5.06% and -3.61% (SW1463; cell proliferation; 1.52 nM).
The inhibition was 94.8% (PKMYT1; 0.1111 µM).
For HCC1569; automated capillary immunoblot, measured: CDK1 phospho-Thr14; 1 nM, 24 h: inhibition read 14%.
It gave 89.1% for inhibition (RKO; cell proliferation; 10000 nM).
For NCI-H1568; cell proliferation; 41.15 nM: inhibition read 4.73% and 0.16% and 5.15%.
NCI-H1568; cell growth; 3333.33 nM — inhibition: 78.3%.
The inhibition was 94% (PKMYT1; enzyme activity, inhibitor; 41.15 nM).
HCC1806; cell proliferation; 41.15 nM — inhibition: 4.95% and 0.89% and 0.93%.
NCI-H1568; cell proliferation; 10000 nM — inhibition: 88.5% and 87.5%.
PKMYT1; 0.04115 µM — inhibition: 92.3%.
The inhibition was 79.4% (HCC1569; automated capillary immunoblot, measured: CDK1 phospho-Thr14; 100 nM, 8 h).
MDA-MB-436; cell proliferation; 4.57 nM — inhibition: 1.18% and 1.42% and 6.2%.
For PKMYT1; 3333.33 nM: inhibition read 101% and 99.5%.
It gave 86% for inhibition (BRAF; KINOMEscan; 1000 nM).

Series 3
SMILES: C[C@@H]1CN(c2ccc(-c3cc(C(=O)NCCOCCOCCOCCOCCNC(=O)Cn4cc(-c5[nH]cc(C(=O)N[C@@H](CC(N)=O)c6ccc(F)c(Cl)c6)c5-c5ccc(Cl)cc5F)cn4)ccc3F)cc2NC(=O)c2c[nH]c(=O)cc2C(F)(F)F)C[C@H](C)N1C
Effect on: thermal unfolding
Method: differential scanning fluorimetry
Concentration: 5.5 µM
Direction: higher = more unfolded
DCAF1: DDB1- and CUL4-associated factor 1 (DCAF1, Homo sapiens, UniProt Q9Y4B6)
Chain of UniProt Q9Y4B6 (whole entry, looked up): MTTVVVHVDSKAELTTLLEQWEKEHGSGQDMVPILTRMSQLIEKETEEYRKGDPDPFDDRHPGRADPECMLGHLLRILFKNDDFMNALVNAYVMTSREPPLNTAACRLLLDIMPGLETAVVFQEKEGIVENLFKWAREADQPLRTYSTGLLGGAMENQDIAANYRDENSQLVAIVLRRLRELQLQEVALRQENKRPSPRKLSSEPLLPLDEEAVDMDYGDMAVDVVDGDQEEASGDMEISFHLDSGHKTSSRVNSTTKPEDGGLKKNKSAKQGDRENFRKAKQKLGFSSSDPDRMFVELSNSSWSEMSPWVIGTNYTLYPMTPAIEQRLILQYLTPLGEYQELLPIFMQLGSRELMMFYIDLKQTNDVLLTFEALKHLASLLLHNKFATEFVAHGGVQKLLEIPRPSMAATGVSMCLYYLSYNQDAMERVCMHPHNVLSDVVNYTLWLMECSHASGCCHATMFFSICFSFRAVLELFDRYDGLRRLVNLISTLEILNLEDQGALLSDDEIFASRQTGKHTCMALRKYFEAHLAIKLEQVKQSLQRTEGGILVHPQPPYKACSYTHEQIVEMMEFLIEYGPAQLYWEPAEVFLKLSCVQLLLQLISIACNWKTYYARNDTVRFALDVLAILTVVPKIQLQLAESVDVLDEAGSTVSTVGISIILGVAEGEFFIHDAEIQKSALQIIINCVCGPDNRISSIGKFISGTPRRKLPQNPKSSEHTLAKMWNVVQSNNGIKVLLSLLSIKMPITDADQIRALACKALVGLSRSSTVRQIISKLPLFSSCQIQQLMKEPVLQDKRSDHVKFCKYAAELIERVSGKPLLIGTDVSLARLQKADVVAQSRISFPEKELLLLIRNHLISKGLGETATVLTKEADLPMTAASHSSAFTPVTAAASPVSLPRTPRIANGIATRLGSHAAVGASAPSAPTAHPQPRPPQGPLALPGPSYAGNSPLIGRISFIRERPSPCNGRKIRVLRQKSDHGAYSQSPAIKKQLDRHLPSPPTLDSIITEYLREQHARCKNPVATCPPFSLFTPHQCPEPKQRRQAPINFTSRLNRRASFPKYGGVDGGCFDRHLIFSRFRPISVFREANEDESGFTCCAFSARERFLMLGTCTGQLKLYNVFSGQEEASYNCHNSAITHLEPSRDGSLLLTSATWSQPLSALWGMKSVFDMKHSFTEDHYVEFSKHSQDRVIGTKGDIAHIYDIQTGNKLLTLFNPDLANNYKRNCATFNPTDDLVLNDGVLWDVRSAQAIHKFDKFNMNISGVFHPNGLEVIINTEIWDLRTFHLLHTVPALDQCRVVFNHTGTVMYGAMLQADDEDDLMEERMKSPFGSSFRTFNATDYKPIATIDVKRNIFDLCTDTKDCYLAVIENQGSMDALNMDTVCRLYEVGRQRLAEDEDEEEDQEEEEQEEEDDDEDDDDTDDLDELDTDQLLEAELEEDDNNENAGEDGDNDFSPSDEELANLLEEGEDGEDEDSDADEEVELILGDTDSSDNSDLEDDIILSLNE
WDR5: WD repeat-containing protein 5 (WDR5, Homo sapiens, UniProt P61964)
DCAF1; 30.4 °C — “SYPRO Orange fluorescence”: 8330 a.u.
The “SYPRO Orange fluorescence” was 24900 a.u. (DCAF1; 57.01 °C).
It gave 42400 a.u. for “SYPRO Orange fluorescence” (WDR5; 91.01 °C).
For DCAF1; 73.21 °C: “SYPRO Orange fluorescence” read 51200 a.u.
It gave 14400 a.u. for “SYPRO Orange fluorescence” (DCAF1; 49.8 °C).
It gave 14200 a.u. for “SYPRO Orange fluorescence” (WDR5; 40.6 °C).
For DCAF1; 85.41 °C: “SYPRO Orange fluorescence” read 39300 a.u.
The “SYPRO Orange fluorescence” was 7620 a.u. (WDR5; 65.01 °C).
The “SYPRO Orange fluorescence” was 15000 a.u. (WDR5; 30 °C).
The “SYPRO Orange fluorescence” was 33000 a.u. (DCAF1; 92.21 °C).
For DCAF1; 27.4 °C: “SYPRO Orange fluorescence” read 7740 a.u.

Series 4
SMILES: CCN1/C(=C/C=C2\CCCC(/C=C/C3=[N+](CC)c4ccccc4C3(C)C)=C2NCCCCCCCCN2CCC(Nc3nc4ccccc4n3Cc3ccc(F)cc3)CC2)C(C)(C)c2ccccc21
Cell line: U-87 MG
Concentration: concentration not given
Baseline: DMSO
The “log2 fold change” was -1.26 (measured: CDH24 mRNA).
It gave -1.64 for “log2 fold change” (measured: JRK).
measured: PHF19 mRNA — “log2 fold change”: -1.62.
measured: BRAF mRNA — “log2 fold change”: 0.957.
The “log2 fold change” was 0.998 (measured: ZFYVE1 mRNA).
measured: XYLT2 mRNA — “log2 fold change”: -1.09.
For measured: ERMN mRNA: “log2 fold change” read -2.45.
The “log2 fold change” was 1.12 (measured: GPR68 mRNA).
measured: POC1B mRNA — “log2 fold change”: 1.03.
For measured: TAX1BP1 mRNA: “log2 fold change” read 0.903.
The “log2 fold change” was 3.62 (measured: MUC20 mRNA).
The “log2 fold change” was 0.919 (measured: FAM171B mRNA).
It gave -1.7 for “log2 fold change” (measured: CHST1 mRNA).
It gave -1.22 for “log2 fold change” (measured: PER3 mRNA).
It gave 1.09 for “log2 fold change” (measured: SLC25A38 mRNA).
For measured: WNT7B mRNA: “log2 fold change” read -2.96.

For quick reference, copied from above (series 2):
The inhibition was 79.4% (HCC1569; automated capillary immunoblot, measured: CDK1 phospho-Thr14; 100 nM, 8 h).
MDA-MB-436; cell proliferation; 4.57 nM — inhibition: 1.18% and 1.42% and 6.2%.
For PKMYT1; 3333.33 nM: inhibition read 101% and 99.5%.
It gave 86% for inhibition (BRAF; KINOMEscan; 1000 nM).
